Measurements pooled from the literature.
Every numbered part comes from another study and shows a few of its results, in no order.

Block 1
Target: Replicase polyprotein 1ab, main protease (rep, Severe acute respiratory syndrome coronavirus 2, UniProt P0DTD1)
Read-out: enzyme activity
Action: inhibitor
Concentration: 20 µM
Notes: hit confirmation, with DTT
CCCCCCNC(=O)n1cc(F)c(=O)[nH]c1=O has an inhibition of 99.2%.
O=C(CCl)c1ccccc1 has an inhibition of 99%.
With Cc1ccc(S(=O)(=O)c2ccc([N+](=O)[O-])o2)cc1 the inhibition was 5.8%.
O=C(O)C1=CC(=C(c2ccc(O)c(C(=O)O)c2)c2ccc(O)c(C(=O)O)c2)C=CC1=O has an inhibition of 88.7%.

Block 2
Target: PABPC1L2, full length, GST fusion (mouse, UniProt A0ABA7IW68)
Technique: RNAcompete
Molecule type: RNA
Matrix: in vitro
Concentration: 20 nM
Notes: 7-mer, probes averaged, single round
Relative to: mean of 7-mers
Direction: higher = stronger binding
Residues (chain): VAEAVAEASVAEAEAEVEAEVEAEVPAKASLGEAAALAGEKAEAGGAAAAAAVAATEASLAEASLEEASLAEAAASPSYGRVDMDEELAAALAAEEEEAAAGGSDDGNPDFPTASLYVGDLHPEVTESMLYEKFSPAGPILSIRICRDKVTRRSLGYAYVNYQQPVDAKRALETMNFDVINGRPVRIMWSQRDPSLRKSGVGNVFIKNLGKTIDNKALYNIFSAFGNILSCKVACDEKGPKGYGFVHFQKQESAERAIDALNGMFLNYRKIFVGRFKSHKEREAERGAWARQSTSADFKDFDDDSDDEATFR
For `AGACCAA`, the 7-mer Z-score was 0.298.
With `GGCCCCC` the 7-mer Z-score was -0.382.
`ACUGGGG` gave a 7-mer Z-score of 0.274.
For `UUGCGUU`, the 7-mer Z-score was -0.382.
With `ACAGCAC` the 7-mer Z-score was 0.122.
The 7-mer Z-score of `GUGCCCG` is reported as -0.389.
For `GGUUCAU`, the 7-mer Z-score was -0.26.
`AUUAAAC` has a 7-mer Z-score of 0.691.

Block 3
Target: RNA binding protein fox-1 homolog 2, RRM domain, GST-SBP tag (RBFOX2, Homo sapiens, UniProt O43251-10, residues 100-194)
Technique: RNA Bind-n-Seq
Molecule type: RNA
Matrix: in vitro
Concentration: 365 nM
Notes: natural RNA segment, single round, ends assumed
Relative to: no-protein control
Direction: higher = stronger binding
Constant ends, left off below: GGGAGUUCUACAGUCCGACGAUC … UGGAAUUCUCGGGUGCCAA
Residues (chain): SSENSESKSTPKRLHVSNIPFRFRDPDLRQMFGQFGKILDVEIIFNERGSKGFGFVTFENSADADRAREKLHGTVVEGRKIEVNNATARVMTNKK
Under “RBNS enrichment (R)”, `GUUAGUUGGGCAGCCCUUCUGGGUUUCAGAGACCGGUGUUGGCUCUAGACUGGUCUCAUCUCCAUUGCCUUAAUGCCAGGUGGCCCAGGAGUACCCAUGCACAGCAGCUG` is recorded as 0.531.
Under “RBNS enrichment (R)”, `UAUUUAUGUAGUAUUUCAAACAUUUCAAAAUGCUUUCAUCUAUGUUUAUCACAUUUUAAUACCACAGCACUUAUAAUGAUGUCACUACAUAUAGAAGCUCAAAGUUAAGG` is recorded as 0.399.
Under “RBNS enrichment (R)”, `UCACGUACCGAGUGGGCAGUGUCACAGCCAAAGCUACCACUGAGCCACAGCGUAGGUCAUUGCUUGAAAAAAAUGACAGUGACAAUGGAGUGUGACCUUGGUGUACUGUG` is recorded as 1.02.
Under “RBNS enrichment (R)”, `UCCUCACCUUGAUCAGGACUAAAGGACGGAGGCCACUCCACCCCUUCCCCUUCUUCCAAAUCCCUAACUUCCUCCAGGCAAAACCCUCUGCCCUGCAGGAUUGAAGAUGG` is recorded as 0.335.
`UAGGCCAGGCUGGCUCCUGGCUGUGAAGGAACUUCCGGUCCCCAAGAAGCCUUGAAGACUGGACAAGGGAGGACAGGGUGGAGCAGGGAUAGCCGUGGCUUCAUUUAUCG`: “RBNS enrichment (R)” 0.346.
Under “RBNS enrichment (R)”, `UAGGAGUAAUAGUUUCCCCCAAGGACAGCCCAGCCCAUGGACCACUUCUUCCUCAGUGGAGAUACCACACAUGAGUGGAGAGAUACGUUAGAUAGCUUUGGUAAAUAUCU` is recorded as 0.318.
`CAGAAAUCCUCUGGGGCAUUUAACCAUCUGGCAGAAUUGUUGCUGCACCCUUAUCCCAGUUAUAAGACAGUCAAAAUGACUAUUUCCUAAAUAUUGUGAGUGUAUGAAAU`: “RBNS enrichment (R)” 0.313.
Under “RBNS enrichment (R)”, `CACACAAAAUCACCAAUGAUUCCGUUACCUUCUGGAGUAAGGACCCCACCCUCUCUGCAGCAAGGGGGCCCUCCUUGUCACUGACAUUUGCUAAACCGUGGCAAUUCAUC` is recorded as 0.405.

Block 4
Target: Replicase polyprotein 1ab, polymerase (rep, Severe acute respiratory syndrome coronavirus 2, UniProt P0DTD1)
Read-out: enzyme activity
Action: inhibitor
Concentration: 20 µM
CC(C)(C)NCc1cc(Nc2ccnc3cc(Cl)ccc23)c2c(c1O)CCCC2 has an inhibition of 28%.
For CCCCCCCCNC(=O)/C(C#N)=C/c1cn(CCCN(C)C)c2ccccc12, the inhibition was 7.18%.
CC(C)(C)c1ccc(CN(Cc2cccc(OCC(=O)O)c2)S(=O)(=O)c2cccnc2)cc1 has an inhibition of 0.17%.
COc1ccc(/C=C\c2cc(OC)c(OC)c(OC)c2)cc1O has an inhibition of 6.53%.
For O=C(COc1cccc2c(=O)[nH]ccc12)c1ccccc1, the inhibition was 3.58%.
The inhibition of CN1C[C@@H](NS(=O)(=O)N(C)C)C[C@@H]2c3cccc4c3c(cn4C)C[C@H]21 is reported as 0.7%.
C[N+](C)(C)[C@@H](Cc1c[nH]c(=S)[nH]1)C(=O)[O-] gave an inhibition of -0.64%.
CSc1ccc(C(=O)c2[nH]c(=O)[nH]c2C)cc1 gave an inhibition of 1.64%.
The inhibition of CC(=C(CCO)SSCC1CCCO1)N(C=O)Cc1cnc(C)nc1N (stereo in doubt) is reported as -0.5%.
CCCCCCCCCC(=O)O[C@H]1CC[C@H]2[C@@H]3CCC4=CC(=O)CC[C@@H]4[C@H]3CC[C@]12C gave an inhibition of 2.84%.
Nc1ncnc2n[nH]c(Nc3ccc(F)cc3)c12 gave an inhibition of -4.27%.
Cc1nc2c([nH]1)-c1ccccc1N(C(=O)c1ccc(NC(=O)c3ccccc3-c3ccccc3)cc1)CC2 gave an inhibition of 2.5%.
For O=C(/C=C/c1ccc(O)c2c1[C@H](C(=O)O[C@H](Cc1ccc(O)c(O)c1)C(=O)O)[C@@H](c1ccc(O)c(O)c1)O2)O[C@H](Cc1ccc(O)c(O)c1)C(=O)O, the inhibition was 69.1%.
With CCN1CCN(Cc2ccc(Nc3ncc(F)c(-c4cc(F)c5nc(C)n(C(C)C)c5c4)n3)nc2)CC1 the inhibition was 4.21%.
C[C@@H]1C[C@H]2[C@@H]3C[C@H](F)C4=CC(=O)C=C[C@]4(C)[C@@]3(F)[C@@H](O)C[C@]2(C)[C@@]1(O)C(=O)COC(=O)C(C)(C)C has an inhibition of 19.7%.
COC(=O)c1c(-c2cc(OC)c(OC)c(OC)c2)c2ccnc(OCc3ncccn3)c2c(=O)n1Cc1ccnc(C)c1 gave an inhibition of -3.58%.
With COc1cc(/C=C/C(=O)N2CCN(CC(=O)N3CCCC3)CC2)cc(OC)c1OC the inhibition was -3.22%.
NCC1(CC(=O)O)CCCCC1 has an inhibition of -2.29%.
The inhibition of CCCCCn1cc(C(=O)NC23CC4CC(CC(C4)C2)C3)c(=O)c2cc(-c3ccccc3)ccc21 is reported as 7.83%.
NC[C@H]1CC[C@H](C(=O)O)CC1 gave an inhibition of 28.3%.
CC(C)[C@@H](CS(=O)(=O)C(C)C)N1C(=O)[C@@](C)(CC(=O)O)C[C@H](c2cccc(Cl)c2)[C@H]1c1ccc(Cl)cc1 has an inhibition of -1.21%.
With O=C(N[C@H]1CN2CCC1CC2)c1c[nH]c2ccsc2c1=O the inhibition was 4.96%.
With Cc1ccc(-c2ncccn2)c(C(=O)N2C[C@H](COc3ccc(F)cn3)CC[C@H]2C)c1 the inhibition was -2.74%.
With Cn1ncc(Cl)c1-c1cc(C(=O)N[C@H](CN)Cc2cccc(F)c2)sc1Cl the inhibition was 1.51%.
The inhibition of C[C@H]1C[C@@H]2[C@H]([C@@H](O)C[C@@]3(C)[C@H]2CC[C@]3(O)C(=O)COC(=O)CCC(=O)O)[C@@]2(C)C=CC(=O)C=C12 is reported as -2.85%.

Block 5
Cell line: HEK-293T/ACE2
Concentration: 10 µM
Time: 16 h
Relative to: vehicle
For CCC(=O)NCC[C@@H]1CCc2ccc3c(c21)CCO3, the viability was 97.9%.
CC(C)(C)C(=O)OCOP(=O)(COCCn1cnc2c(N)ncnc21)OCOC(=O)C(C)(C)C gave a viability of 74.4%.
NS(=O)(=O)c1cc2c(cc1Cl)N=CNS2(=O)=O gave a viability of 101%.
For CO/N=C(\C(=O)N[C@@H]1C(=O)N2C(C(=O)O)=C(C[N+]3(C)CCCC3)CS[C@H]12)c1csc(N)n1, the viability was 101%.

Block 6
Target: Sal-like protein 4, full length isoform A (SALL4, Homo sapiens, UniProt Q9UJQ4, residues 1-1053)
UniProt Q9UJQ4, sequence (whole entry, looked up): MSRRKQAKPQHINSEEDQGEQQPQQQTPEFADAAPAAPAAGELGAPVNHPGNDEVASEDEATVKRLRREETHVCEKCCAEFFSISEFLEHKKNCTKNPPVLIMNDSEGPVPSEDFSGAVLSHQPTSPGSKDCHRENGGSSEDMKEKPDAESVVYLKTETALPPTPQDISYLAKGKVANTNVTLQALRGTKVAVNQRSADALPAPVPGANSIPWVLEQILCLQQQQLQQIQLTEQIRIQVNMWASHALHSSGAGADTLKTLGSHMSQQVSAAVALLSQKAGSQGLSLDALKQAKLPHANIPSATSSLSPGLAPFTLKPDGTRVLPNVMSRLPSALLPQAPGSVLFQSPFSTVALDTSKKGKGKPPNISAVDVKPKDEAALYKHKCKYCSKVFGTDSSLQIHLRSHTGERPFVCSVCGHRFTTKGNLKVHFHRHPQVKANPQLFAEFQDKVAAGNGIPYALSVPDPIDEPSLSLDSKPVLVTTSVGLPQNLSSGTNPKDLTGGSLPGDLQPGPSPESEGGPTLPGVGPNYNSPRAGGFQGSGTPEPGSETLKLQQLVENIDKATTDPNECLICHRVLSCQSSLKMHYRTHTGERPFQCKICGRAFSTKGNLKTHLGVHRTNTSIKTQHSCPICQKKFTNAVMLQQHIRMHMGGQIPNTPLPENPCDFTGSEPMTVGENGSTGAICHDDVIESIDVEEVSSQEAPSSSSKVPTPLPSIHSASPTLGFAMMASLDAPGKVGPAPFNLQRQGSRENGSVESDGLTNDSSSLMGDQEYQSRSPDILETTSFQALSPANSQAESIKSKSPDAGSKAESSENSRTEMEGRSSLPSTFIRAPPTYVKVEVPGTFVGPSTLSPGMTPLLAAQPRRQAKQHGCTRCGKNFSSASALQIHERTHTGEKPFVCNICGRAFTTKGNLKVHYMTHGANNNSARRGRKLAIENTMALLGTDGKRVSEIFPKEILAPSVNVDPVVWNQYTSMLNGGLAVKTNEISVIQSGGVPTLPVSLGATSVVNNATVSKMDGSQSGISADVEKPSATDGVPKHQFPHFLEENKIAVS
Technique: universal PBM
Molecule type: double-stranded DNA, one strand shown
Matrix: in vitro
Concentration: 600 nM
Notes: 8-mer, flanks averaged, mean of replicates
Direction: higher = stronger binding
With `GCCGGATA` the E-score was -0.0233.
For `ATCTTTGA`, the E-score was 0.166.
The E-score of `GATTTCAC` is reported as 0.179.
With `ATCTTCTA` the E-score was 0.0599.
For `CTAGTTTC`, the E-score was -0.0513.
`ATTGCTTG` gave an E-score of 0.197.
For `CTCGTCAG`, the E-score was -0.126.
`GACTTTAA` has an E-score of 0.202.
